# Results collected from several papers.
# Each numbered part is a random draw from the data of one study; scales do not carry over between parts. “And” joins repeats or separate records; there may be more than shown.

# Set 1
# Target: Interferon regulatory factor 7, full length, phosphomimetic (IRF7, Homo sapiens, UniProt Q92985, residues 1-503, S101K/S471D/S472D/S475D/S476D/S477D/S483D/S484D/S487D)
# Method: protein-binding microarray
# Molecule type: double-stranded DNA, one strand shown
# Matrix: in vitro
# Tested at: 250 nM
# Setting: 60-bp whole probe
# Together with: salmon DNA 0.4 mg/ml
# Baseline: random background probes
# Reading: higher = stronger binding
# Shared flanks, not repeated: GCCTAGCAC … GTCTTGATTCGCTTGACGCTGCTG
# Construct (chain): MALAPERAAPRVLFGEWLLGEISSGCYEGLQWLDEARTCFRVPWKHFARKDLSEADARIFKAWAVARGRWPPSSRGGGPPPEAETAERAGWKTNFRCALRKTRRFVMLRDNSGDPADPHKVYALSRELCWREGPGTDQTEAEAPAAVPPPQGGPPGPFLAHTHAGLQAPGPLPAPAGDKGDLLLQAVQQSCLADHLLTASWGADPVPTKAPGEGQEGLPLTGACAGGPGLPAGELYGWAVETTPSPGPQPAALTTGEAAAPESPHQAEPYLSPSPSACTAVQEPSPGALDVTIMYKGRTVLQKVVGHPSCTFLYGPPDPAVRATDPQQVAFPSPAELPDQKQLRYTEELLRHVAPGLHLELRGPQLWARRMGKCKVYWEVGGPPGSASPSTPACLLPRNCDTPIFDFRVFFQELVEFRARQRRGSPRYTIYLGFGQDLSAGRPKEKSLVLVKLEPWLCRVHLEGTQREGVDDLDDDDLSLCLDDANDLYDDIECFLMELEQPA
Oligonucleotide,log fluorescence [z-score]
TCATTTTGCTTTCTTTAACTGTGCTAG,1.97
GACGGTTTCCGGACTGGGGACGTGCTA,1.02
GACGGTACCGGACTGGGGACGTGCTAG,-0.0887
TTAGGTTTCGTACTGCTTTAGTGCTAG,5.72
TTAGATTTCAGTCTCGAATAGTGCTAG,0.854
GACGGTATGGGTTTCGGGACGTGCTAG,1.33
GACGGGCTGCTTATCCTGACGTGCTAG,-0.809
TCAGATGCCTTTCTCTTACTGTGCTAG,0.322

# Set 2
# Target: Serine/threonine-protein kinase 17A (STK17A, Homo sapiens, UniProt Q9UEE5)
# Observed: enzyme activity
# Mode: inhibitor
# Tested at: 0.5 µM
# Baseline: control
# Target sequence (Q9UEE5 1-414): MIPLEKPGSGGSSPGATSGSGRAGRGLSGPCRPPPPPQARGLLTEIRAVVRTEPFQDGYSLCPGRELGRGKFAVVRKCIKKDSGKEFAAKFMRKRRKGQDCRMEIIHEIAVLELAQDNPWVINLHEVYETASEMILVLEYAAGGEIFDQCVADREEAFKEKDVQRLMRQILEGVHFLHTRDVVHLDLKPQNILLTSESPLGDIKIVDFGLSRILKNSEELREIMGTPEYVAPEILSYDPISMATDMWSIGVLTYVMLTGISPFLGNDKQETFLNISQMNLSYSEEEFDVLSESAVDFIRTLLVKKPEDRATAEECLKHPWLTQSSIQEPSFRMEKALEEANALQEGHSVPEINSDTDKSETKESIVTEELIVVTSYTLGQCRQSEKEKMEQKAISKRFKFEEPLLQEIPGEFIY
SMILES,remaining activity
CN(C)C[C@H]1CCn2c(c(C3=C(c4cn(C)c5ccccc45)C(=O)NC3=O)c3ccccc32)C1,87.6%
O=C(Nc1cccc(Nc2nccc(Nc3cccc(C(F)(F)F)c3)n2)c1)C1CC1,97.6%
Cc1cc2ncc(-c3ccccc3)nc2cc1C,80%
CCOc1nc(NC(=O)Cc2cc(OC)ccc2OC)cc(N)c1C#N,102%

# Set 3
# Target: Ras GTPase-activating protein-binding protein 1, full length (G3BP1, Homo sapiens, UniProt Q13283)
# UniProt Q13283, sequence (whole entry, looked up): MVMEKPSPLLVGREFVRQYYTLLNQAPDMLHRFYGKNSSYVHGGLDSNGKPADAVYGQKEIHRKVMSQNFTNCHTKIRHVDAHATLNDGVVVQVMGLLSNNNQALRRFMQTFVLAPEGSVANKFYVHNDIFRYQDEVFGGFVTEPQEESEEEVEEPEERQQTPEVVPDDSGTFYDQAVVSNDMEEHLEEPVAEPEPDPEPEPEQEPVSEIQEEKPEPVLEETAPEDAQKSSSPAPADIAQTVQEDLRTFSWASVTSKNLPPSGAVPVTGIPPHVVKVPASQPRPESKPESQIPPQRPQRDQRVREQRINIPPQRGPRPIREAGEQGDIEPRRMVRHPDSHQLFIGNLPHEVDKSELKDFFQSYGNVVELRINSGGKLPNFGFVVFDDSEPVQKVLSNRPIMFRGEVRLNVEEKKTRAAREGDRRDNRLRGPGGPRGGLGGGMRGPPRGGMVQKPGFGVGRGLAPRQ
# Method: RNA Bind-n-Seq
# Molecule type: RNA
# Matrix: in vitro
# Tested at: 200 nM
# Setting: whole 134-nt RNA, ends assumed
# Together with: 150 mM LiCl
# Baseline: input library
# Reading: higher = stronger binding
# All molecules: 7-deaza-guanosine replaces G
Oligonucleotide,log2 enrichment
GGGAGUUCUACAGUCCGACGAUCUGUGACAGGAGAGCGCUUGAAGAGCAAUGUGACGAGGACCAUCAGACACCGAGGGAUGGAGAGACAUCCCACAGGGCCCAGAUUCAGCAGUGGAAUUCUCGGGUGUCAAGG,-0.11
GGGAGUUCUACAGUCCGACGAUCGCAGGAAGUAAAAACAAAUGGAAAUGCUUCGGAUAAAGGCAGGGGUGGGGGUUGCUAAGGAAAGGGUGGGAUGGGAGUGGGUAAAGAGUUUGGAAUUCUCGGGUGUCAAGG,-0.261
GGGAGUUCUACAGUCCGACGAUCUACAGGAGCUUCCUGGGACUGACCUGCCUGAUGCAAAUUUCUACUCGGACGGAAGACUUCAUCAUUGACACCCUCGAGCUUCGAAGUGACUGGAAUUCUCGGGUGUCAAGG,-1.13
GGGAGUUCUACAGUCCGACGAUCUCCUGUGCUACACAUCGUAUGUACCGAAUCAAAUUUUUUUAAAUUUAAACCCCCCCAAAAAAGUAUUAUGUUACGCCGUUCGGAUCUGCAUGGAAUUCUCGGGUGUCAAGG,1.5
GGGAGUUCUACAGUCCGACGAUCUCAAGUCCUGUGCUACACAUCGUAUGUACCGAAUCGGUUUUUUUGGUUUGGUGGAAAGUAUUAUGUUACGCCGUUCGGAUCUGCACUUCCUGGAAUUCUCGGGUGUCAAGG,-0.7
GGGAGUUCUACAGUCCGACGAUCUCCUGUGCUACACAUCGUAUGUACCGAAUCAAACCCAAAUUUUUUUAAAUUUUUUUAAAAAAGUAUUAUGUUACGCCGUUCGGAUCUGCAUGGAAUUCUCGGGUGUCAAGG,-1.22
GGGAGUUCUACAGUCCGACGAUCAAGUCCUGUGCUACACAUCGUAUGUACCGAAUCGGCCCCGGCCCCGGGGCCCCGGGAAAGUAUUAUGUUACGCCGUUCGGAUCUGCACUUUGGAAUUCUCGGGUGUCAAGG,-2.39
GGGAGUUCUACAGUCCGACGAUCUCAAGUCCUGUGCUACACAUCGUAUGUACCGAAUCGGUUUGGGGUUUGGGUUUGGAAAGUAUUAUGUUACGCCGUUCGGAUCUGCACUUCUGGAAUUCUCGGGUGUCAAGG,-1.03

# Other studies, line by line
# ADRB2: Beta-2 adrenergic receptor (ADRB2, Homo sapiens, UniProt P07550)
Compound,target or system,assay,test system,setting,how to read,quantity,value
COc1cccc(CNC(=O)c2nc3scc(COCc4ccc(C(=O)O)cc4)c3c(=O)[nH]2)c1,ADRB2,"binding, radioligand binding",,10 µM,,inhibition,25.4%
CCCCN(Cc1ccccc1)C(=O)c1ccc(S(=O)(=O)Nc2ccccc2)cc1,normal organoid sample H,CellTiter-Glo,human,"1 µM, 4 days",baseline: DMSO,viability,114% and 105%
C[C@@H](c1cccc(C#N)c1)n1cc(Cl)cc(C(N)=O)c1=N,"PRKACA (Homo sapiens, UniProt P17612)","cell-free assay, competition with immobilised ligand",,1 µM,,remaining binding,100%
Cc1nc(C2CCN(C(=O)c3ccc(OC(F)(F)F)cc3N)CC2)c2ncc(N3CCN(C)CC3)cc2n1,ADRB2,"binding, radioligand binding",,10 µM,,inhibition,-5.65%

# Some of these lines once more (set 3):
Oligonucleotide,log2 enrichment
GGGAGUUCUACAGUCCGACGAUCUCCUGUGCUACACAUCGUAUGUACCGAAUCAAACCCAAAUUUUUUUAAAUUUUUUUAAAAAAGUAUUAUGUUACGCCGUUCGGAUCUGCAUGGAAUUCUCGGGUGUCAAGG,-1.22
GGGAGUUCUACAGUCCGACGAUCUCCUGUGCUACACAUCGUAUGUACCGAAUCAAAUUUUUUUAAAUUUAAACCCCCCCAAAAAAGUAUUAUGUUACGCCGUUCGGAUCUGCAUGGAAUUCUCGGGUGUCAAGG,1.5
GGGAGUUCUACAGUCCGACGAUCGCAGGAAGUAAAAACAAAUGGAAAUGCUUCGGAUAAAGGCAGGGGUGGGGGUUGCUAAGGAAAGGGUGGGAUGGGAGUGGGUAAAGAGUUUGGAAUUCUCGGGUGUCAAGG,-0.261
